Experimental data collected from several papers.
Every numbered part comes from another study and shows a few of its results, in no order. Substitutions count along the parent as printed.

Set 1
Target: ABI1, truncated, D143A, DHFR fusion (Arabidopsis thaliana)
Technique: DHFR PCA, deep sequencing
Sample: yeast
Notes: methotrexate growth selection, single substitutions
Together with: (+)-ABA 2500 µM
Relative to: wild-type fitted maximum
Direction: higher = stronger binding
Starting sequence: PYL1, truncated, DHFR fusion (Arabidopsis thaliana); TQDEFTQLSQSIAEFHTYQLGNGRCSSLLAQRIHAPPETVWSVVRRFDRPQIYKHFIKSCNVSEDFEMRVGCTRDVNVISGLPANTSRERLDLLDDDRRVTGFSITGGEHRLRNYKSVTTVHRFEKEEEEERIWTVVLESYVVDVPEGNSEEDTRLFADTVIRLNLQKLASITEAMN; partner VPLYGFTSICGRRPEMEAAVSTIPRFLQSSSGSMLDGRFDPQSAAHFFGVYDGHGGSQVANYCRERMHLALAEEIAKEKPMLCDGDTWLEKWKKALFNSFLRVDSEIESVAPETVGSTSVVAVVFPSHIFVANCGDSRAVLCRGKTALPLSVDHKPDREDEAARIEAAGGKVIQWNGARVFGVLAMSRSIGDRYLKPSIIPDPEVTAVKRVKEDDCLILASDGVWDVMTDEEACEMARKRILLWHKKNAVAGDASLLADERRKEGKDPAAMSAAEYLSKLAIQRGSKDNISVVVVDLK
Substitution | relative binding score [%]
V76C | 92.2
N22P | 102
S42V | 93.5
D97H | 96
R69I | 100
V76W | -6.28
V62W | 88.5
R90P | -6.48
V76G | 8.51
S80N | 80.2
R90S | 89.7
D153M | 54.6
R74E | 0.332
N177L | 109
I172S | 86.4
K126A | 103
S42F | 94.6
S11T | 87.8
E89Q | 65
A84C | 85.3

Set 2
Target: CCND3, cyclin fold, Cln2 fusion (human)
Technique: yeast growth competition, sequencing
Sample: yeast
Notes: weak parent motif
Relative to: not given
Direction: higher = stronger binding
Starting sequence: BRCA2 docking peptide (human); PSIKRNLLNEFDR; partner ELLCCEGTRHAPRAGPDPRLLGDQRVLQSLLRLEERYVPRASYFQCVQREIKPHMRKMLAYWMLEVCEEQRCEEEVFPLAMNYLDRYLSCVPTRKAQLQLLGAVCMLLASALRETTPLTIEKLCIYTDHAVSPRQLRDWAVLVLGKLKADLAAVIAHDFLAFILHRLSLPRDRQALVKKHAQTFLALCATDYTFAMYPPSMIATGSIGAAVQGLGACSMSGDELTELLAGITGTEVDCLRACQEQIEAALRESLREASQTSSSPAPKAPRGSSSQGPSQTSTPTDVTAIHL
Substitution | normalised enrichment score
PSIKRNLLNEFDP [R13P] | 0.0618
PSIKRNLLNCFDR [E10C] | 0.0966
PSIKRNLKNEFDR [L8K] | 0.0619
PSIKRNLLNEFDM [R13M] | 0.0646
PSIKRNLLVEFDR [N9V] | 0.123
PSIKRNLTNEFDR [L8T] | 0.101
PSIKRNLFNEFDR [L8F] | 0.167
WSIKRNLLNEFDR [P1W] | 0.272
PSIHRNLLNEFDR [K4H] | 0.153
PSIKRNLLNEQDR [F11Q] | 0.0959
PSIKRNALNEFDR [L7A] | 0.113
PSIKRNLLNEFDH [R13H] | 0.0245
PSIKFNLLNEFDR [R5F] | 0.0669
PSISRNLLNEFDR [K4S] | 0.131
PSIKRNLLNEFDS [R13S] | 0.166
PKIKRNLLNEFDR [S2K] | 0.149
PSIKRNQLNEFDR [L7Q] | 0.201
PSIKRNLLEEFDR [N9E] | 0.0864
PSIKRNLLNHFDR [E10H] | 0.114
PSIKRNLLWEFDR [N9W] | 0.129
PSIKRNKLNEFDR [L7K] | 0.103
PSIKANLLNEFDR [R5A] | 0.109
PYIKRNLLNEFDR [S2Y] | 0.124
PRIKRNLLNEFDR [S2R] | 0.0689
PSIKRNLLNEYDR [F11Y] | 0.122

Set 3
Target: HLF, bZIP domain (human)
Technique: DHFR protein complementation
Sample: yeast
Notes: single substitutions, most at no-binding floor
Relative to: wild-type JUN-FOS pair
Direction: higher = stronger binding
Starting sequence: JUN, bZIP domain (human); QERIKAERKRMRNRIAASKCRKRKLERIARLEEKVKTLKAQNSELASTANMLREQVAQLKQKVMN; partner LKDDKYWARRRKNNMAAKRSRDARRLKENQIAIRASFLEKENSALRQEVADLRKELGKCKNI
Substitution | binding fitness [natural log]
L45I | -1.49
R30Q | -1.29
R53A | -1.51
L45N | -1.5
E32W | -1.46
L52M | -1.55
L45G | -1.46
A29D | -1.45
E44Q | -1.5
Q41S | -1.5
A40P | -1.53
V56N | -1.56
L45C | -1.47
V35S | -1.53
K36C | -1.46
A29N | -1.48
L59T | -1.46
L38Q | -1.6
S43R | -1.27
N42K | -1.53
R53I | -1.15

Other studies, line by line
Substance | target | assay | test system | conditions | scale | measurement | value
PhoQ, residues 284 288 289 292 302 303 SNSSNI | PhoP, residues 12 14 15 18 19 TTLRV (Escherichia coli, UniProt P23836) | Sort-seq, item: YFP reporter | E. coli | PhoQ-PhoP variant library, together with: 10 µM Mg2+ | relative to: high Mg2+ state, higher = stronger signaling | fold induction | 0.944
